Experimental data of several laboratories.
Compare with care: the assays were run in different laboratories. Numbers after ± are the reported error.
Chain of UniProt P35410 (whole entry, looked up): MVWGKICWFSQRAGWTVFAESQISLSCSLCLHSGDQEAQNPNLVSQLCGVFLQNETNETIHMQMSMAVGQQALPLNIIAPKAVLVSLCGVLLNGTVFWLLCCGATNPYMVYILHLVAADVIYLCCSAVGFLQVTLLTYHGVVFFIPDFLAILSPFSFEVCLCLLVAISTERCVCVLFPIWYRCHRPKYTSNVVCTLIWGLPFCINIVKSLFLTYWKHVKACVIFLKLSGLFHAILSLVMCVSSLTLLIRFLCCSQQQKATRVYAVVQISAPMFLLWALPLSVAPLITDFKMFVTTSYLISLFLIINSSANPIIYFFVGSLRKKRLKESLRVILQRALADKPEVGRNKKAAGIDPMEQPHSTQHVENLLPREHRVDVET
Chain of UniProt O94921 (whole entry, looked up): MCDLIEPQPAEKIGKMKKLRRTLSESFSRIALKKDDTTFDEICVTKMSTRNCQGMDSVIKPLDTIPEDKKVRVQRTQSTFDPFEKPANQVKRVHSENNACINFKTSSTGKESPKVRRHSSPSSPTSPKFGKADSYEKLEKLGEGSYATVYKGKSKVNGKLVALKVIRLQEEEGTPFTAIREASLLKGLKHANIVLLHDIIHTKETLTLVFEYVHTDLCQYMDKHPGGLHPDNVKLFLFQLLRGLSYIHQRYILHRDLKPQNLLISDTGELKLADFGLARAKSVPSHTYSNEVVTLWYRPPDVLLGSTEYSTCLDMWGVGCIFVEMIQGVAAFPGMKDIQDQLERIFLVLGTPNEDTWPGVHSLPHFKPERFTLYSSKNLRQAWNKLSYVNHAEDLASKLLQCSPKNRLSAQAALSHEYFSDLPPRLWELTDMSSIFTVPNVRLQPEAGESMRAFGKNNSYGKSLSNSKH
Chain of UniProt Q86TI2 (whole entry, looked up): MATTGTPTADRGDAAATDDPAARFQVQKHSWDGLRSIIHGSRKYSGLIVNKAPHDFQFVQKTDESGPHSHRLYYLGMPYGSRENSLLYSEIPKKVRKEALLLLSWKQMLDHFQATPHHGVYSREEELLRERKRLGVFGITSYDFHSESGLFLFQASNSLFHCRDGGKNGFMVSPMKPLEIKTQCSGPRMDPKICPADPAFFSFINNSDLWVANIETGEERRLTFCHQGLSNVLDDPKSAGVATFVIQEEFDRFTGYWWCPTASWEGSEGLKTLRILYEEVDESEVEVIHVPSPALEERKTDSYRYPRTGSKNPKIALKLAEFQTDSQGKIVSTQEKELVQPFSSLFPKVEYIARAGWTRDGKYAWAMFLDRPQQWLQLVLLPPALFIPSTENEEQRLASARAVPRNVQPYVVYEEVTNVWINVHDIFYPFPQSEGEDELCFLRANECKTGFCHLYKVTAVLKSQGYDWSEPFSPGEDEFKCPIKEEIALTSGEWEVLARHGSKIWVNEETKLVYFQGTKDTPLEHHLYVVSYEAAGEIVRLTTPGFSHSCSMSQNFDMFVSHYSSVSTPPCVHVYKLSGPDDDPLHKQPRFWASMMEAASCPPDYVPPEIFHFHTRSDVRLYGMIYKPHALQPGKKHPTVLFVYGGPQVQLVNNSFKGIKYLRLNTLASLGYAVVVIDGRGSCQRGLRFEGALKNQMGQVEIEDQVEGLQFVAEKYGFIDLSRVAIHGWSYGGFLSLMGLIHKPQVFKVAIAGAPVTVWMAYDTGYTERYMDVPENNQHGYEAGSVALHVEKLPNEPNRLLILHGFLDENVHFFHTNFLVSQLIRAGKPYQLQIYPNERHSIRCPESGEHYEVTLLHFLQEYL
Chain of UniProt P00942 (whole entry, unmodified, looked up): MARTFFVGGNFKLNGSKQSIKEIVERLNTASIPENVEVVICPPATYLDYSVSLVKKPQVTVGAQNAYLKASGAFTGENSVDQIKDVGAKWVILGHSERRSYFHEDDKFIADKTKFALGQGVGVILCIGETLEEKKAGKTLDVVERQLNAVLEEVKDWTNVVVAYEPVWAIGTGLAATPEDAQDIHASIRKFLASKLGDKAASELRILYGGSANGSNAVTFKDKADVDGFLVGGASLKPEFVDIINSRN
Chain of UniProt Q16539 (whole entry, looked up): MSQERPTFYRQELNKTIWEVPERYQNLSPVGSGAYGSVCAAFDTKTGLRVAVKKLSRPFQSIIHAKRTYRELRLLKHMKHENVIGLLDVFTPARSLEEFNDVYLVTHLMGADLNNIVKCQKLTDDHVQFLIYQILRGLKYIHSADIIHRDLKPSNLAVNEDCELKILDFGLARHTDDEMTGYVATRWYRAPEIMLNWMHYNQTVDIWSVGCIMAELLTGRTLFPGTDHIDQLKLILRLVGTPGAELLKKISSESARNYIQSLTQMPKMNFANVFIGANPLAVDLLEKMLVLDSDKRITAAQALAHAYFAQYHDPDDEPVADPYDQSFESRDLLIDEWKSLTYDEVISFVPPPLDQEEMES
Chain of UniProt P40939 (whole entry, looked up): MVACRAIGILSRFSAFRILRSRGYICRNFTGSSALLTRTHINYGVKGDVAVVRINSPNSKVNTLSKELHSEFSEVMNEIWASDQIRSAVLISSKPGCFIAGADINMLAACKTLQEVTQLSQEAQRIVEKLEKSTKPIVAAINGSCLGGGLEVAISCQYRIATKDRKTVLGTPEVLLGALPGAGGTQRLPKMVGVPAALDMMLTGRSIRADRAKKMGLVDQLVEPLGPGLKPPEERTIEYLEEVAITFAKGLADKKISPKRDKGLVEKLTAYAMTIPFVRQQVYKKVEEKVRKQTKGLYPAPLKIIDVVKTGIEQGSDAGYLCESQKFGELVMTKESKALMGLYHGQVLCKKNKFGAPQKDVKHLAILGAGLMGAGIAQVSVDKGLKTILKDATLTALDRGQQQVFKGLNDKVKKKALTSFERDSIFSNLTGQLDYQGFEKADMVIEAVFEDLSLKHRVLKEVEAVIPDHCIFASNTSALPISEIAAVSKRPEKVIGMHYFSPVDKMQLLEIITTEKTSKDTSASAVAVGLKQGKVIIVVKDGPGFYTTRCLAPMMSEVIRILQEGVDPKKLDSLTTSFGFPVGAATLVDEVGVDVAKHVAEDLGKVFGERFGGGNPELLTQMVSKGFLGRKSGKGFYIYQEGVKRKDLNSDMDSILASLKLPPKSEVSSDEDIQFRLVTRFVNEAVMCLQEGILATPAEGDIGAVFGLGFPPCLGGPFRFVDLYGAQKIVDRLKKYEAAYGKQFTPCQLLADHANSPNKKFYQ

Compound = O=C1C=CC(=O)c2ccccc21; tested on = Reaction center protein L chain, QB site (pufL, Cereibacter sphaeroides, UniProt P0C0Y8); system = Rhodobacter sphaeroides, reaction centres; conditions = direct QB- to P+ transfer; quantity = recombination rate constant; result = 0.2 s⁻¹
Compound = OC[C@H]1O[C@@H](n2ccc3c(SCc4ccc(Cl)cc4Cl)ncnc32)[C@H](O)[C@@H]1O; tested on = Toxoplasma gondii; assay = [3H]uracil incorporation; system = human fibroblasts, adenosine kinase deficient; conditions = 25 µM; quantity = survival; result = 100%
Compound = CN1CC[C@]2(C)c3cc(OC(=O)Nc4ccccc4)ccc3N(C)[C@H]12; tested on = human nicotinic α4β4 receptor; assay = radioligand binding; conditions = 10 µM, together with: [3H]epibatidine; quantity = inhibition; result = 4.7%
Compound = [2H]c1c([2H])c([C@]2([2H])CCCN2C(=O)C(C)(C)Oc2ccc3cn[nH]c3c2)c([2H])c([2H])c1C([2H])([2H])[2H]; tested on = Cyclin-dependent kinase 14 (CDK14, Homo sapiens, UniProt O94921); assay = KINOMEscan; conditions = 1 µM; how to read = relative to: DMSO control; quantity = remaining binding; result = 91%
Compound = OC[C@H]1O[C@@H](n2ccc3c(SCc4ccc(F)cc4F)ncnc32)[C@H](O)[C@@H]1O; tested on = Toxoplasma gondii; assay = [3H]uracil incorporation; system = human fibroblasts, adenosine kinase deficient; conditions = 50 µM; quantity = survival; result = 100%
Compound = COc1ccc(N2C(=O)N(c3c(C)cccc3Cl)Cc3cnc(Nc4ccc(C5CCN(C)CC5)cc4OC)nc32)nc1; tested on = Mitogen-activated protein kinase 14 (MAPK14, Homo sapiens, UniProt Q16539); assay = kinase activity, inhibitor; conditions = 0.5 µM, kinase P38-ALPHA; quantity = inhibition; result = 98%
Compound = C[C@H]1CN(c2n[nH]c3nc(N[C@H]4CC[C@H](NS(=O)(=O)CCC(F)(F)F)CC4)ncc23)CCO1; tested on = Trifunctional enzyme subunit alpha, mitochondrial (HADHA, Homo sapiens, UniProt P40939); assay = inhibitor, Kinobeads competition profiling; conditions = 20 µM; how to read = relative to: vehicle; quantity = relative abundance; result = 1.08
Compound = COc1ccc2c3c1O[C@H]1C[C@@H](O)C=C[C@@]31CCNC2; tested on = Leucojum aestivum; assay = N-methylation of galanthamine, substrate, LC-MS/MS; conditions = together with: SAM 2 mM; quantity = Km; result = 353 ± 28.5 µM
Compound = Cc1ccc(CSc2ncnc3c2ccn3[C@@H]2O[C@H](CO)[C@@H](O)[C@H]2O)cc1; tested on = Toxoplasma gondii; assay = [3H]uracil incorporation; system = human fibroblasts, adenosine kinase deficient; conditions = 50 µM; quantity = survival; result = 100%
Compound = CC[C@H](C)[C@H](NC(=O)CNC(=O)[C@@H](N)CCCCN)C(=O)N[C@@H](CC(C)C)C(=O)N[C@@H](CCCCN)C(=O)N[C@@H](CCCNC(=N)N)C(=O)N[C@@H](CCC(=O)O)C(=O)N[C@@H](CCCCN)C(=O)N[C@@H](CCCNC(=N)N)C(=O)N[C@@H](CC(C)C)C(=O)N[C@@H](CCCNC(=N)N)C(=O)N[C@@H](CCCNC(=N)N)C(=O)N[C@@H](CCCCN)C(=O)N[C@@H](CC(N)=O)C(=O)N[C@H](C(=O)N[C@@H](Cc1c[nH]cn1)C(=O)N[C@@H](Cc1c[nH]c2ccccc12)C(=O)N1CCC[C@H]1C(=O)N[C@@H](CCC(=O)O)C(=O)N[C@@H](CCC(=O)O)C(=O)NCC(=O)N[C@@H](CCCCN)C(=O)N[C@@H](CC(C)C)C(=O)N[C@@H](CCCNC(=N)N)C(=O)N[C@@H](CCC(=O)O)C(=O)N[C@@H](Cc1ccc(O)cc1)C(=O)N[C@@H](Cc1ccccc1)C(=O)N[C@@H](Cc1ccc(O)cc1)C(=O)N[C@@H](Cc1ccccc1)C(=O)N[C@@H](CCC(=O)O)C(=O)N[C@@H](CC(C)C)C(=O)N[C@@H](CC(=O)O)C(=O)N[C@@H](CCC(=O)O)C(=O)N[C@@H](C)C(=O)N[C@@H](CCC(=O)O)C(=O)N[C@@H](CCCNC(=N)N)C(=O)N[C@H](C(=O)N[C@@H](CC(N)=O)C(=O)N[C@H](C(=O)O)C(C)C)C(C)C)C(C)C; tested on = HeLa and HEK-293T cells; assay = phosphatase bead binding, competitive inhibitor, PIB pulldown iBAQ LC-MS/MS, item: STRN3; conditions = concentration not given; how to read = relative to: untreated control; quantity = log2 fold change; result = -0.19
Compound = Oc1ccc2c3c1O[C@H]1[C@@H](O)CC[C@@]4(O)[C@@H](C2)N(CC2CCC2)CC[C@]314; tested on = Mas-related G-protein coupled receptor MRG (MAS1L, Homo sapiens, UniProt P35410); assay = β-arrestin recruitment, TANGO luminescence, item: MAS1L; conditions = concentration not given; how to read = relative to: basal luminescence; quantity = log2 fold change; result = 0.175
Compound = CC[C@H](C)[C@H](NC(=O)CNC(=O)[C@@H](N)CCCCN)C(=O)N[C@@H](CC(C)C)C(=O)N[C@@H](CCCCN)C(=O)N[C@@H](CCCNC(=N)N)C(=O)N[C@@H](CCC(=O)O)C(=O)N[C@@H](CCCCN)C(=O)N[C@@H](CCCNC(=N)N)C(=O)N[C@@H](CC(C)C)C(=O)N[C@@H](CCCNC(=N)N)C(=O)N[C@@H](CCCNC(=N)N)C(=O)N[C@@H](CCCCN)C(=O)N[C@@H](CC(N)=O)C(=O)N[C@H](C(=O)N[C@@H](Cc1c[nH]cn1)C(=O)N[C@@H](Cc1c[nH]c2ccccc12)C(=O)N1CCC[C@H]1C(=O)N[C@@H](CCC(=O)O)C(=O)N[C@@H](CCC(=O)O)C(=O)NCC(=O)N[C@@H](CCCCN)C(=O)N[C@@H](CC(C)C)C(=O)N[C@@H](CCCNC(=N)N)C(=O)N[C@@H](CCC(=O)O)C(=O)N[C@@H](Cc1ccccc1)C(=O)N[C@@H](Cc1ccccc1)C(=O)N[C@@H](Cc1ccccc1)C(=O)N[C@@H](Cc1ccccc1)C(=O)N[C@@H](CCC(=O)O)C(=O)N[C@@H](CC(C)C)C(=O)N[C@@H](CC(=O)O)C(=O)N[C@@H](CCC(=O)O)C(=O)N[C@@H](C)C(=O)N[C@@H](CCC(=O)O)C(=O)N[C@@H](CCCNC(=N)N)C(=O)N[C@H](C(=O)N[C@@H](CC(N)=O)C(=O)N[C@H](C(=O)O)C(C)C)C(C)C)C(C)C; tested on = HeLa and HEK-293T cells; assay = phosphatase bead binding, competitive inhibitor, PIB pulldown iBAQ LC-MS/MS, item: FECH; conditions = concentration not given; how to read = relative to: untreated control; quantity = log2 fold change; result = 0.32
Compound = CNC1(c2ccccc2Cl)CCCCC1=O (racemic); tested on = sigma receptor; assay = radioligand binding, agonist, radioligand displacement; conditions = 30 µM; quantity = inhibition; result = 4%
Compound = O=C(c1ccc(Cl)cc1)N1CCN2C(=O)N(OC(=O)N3CCOc4ccccc43)C(=O)C2C1 (stereo not shown); tested on = Dipeptidyl peptidase 9 (DPP9, Homo sapiens, UniProt Q86TI2); assay = MS-based ABPP; system = SW-620 conditioned medium; conditions = 10 µM, 1 h, 37 °C; how to read = relative to: compound over DMSO, lower = more inhibition; quantity = median protein ratio; result = 1.05
Compound = O=C(O)COP(=O)(O)O; tested on = TPI1 (Saccharomyces cerevisiae, UniProt P00942, S211A); assay = enzyme activity, competitive inhibitor, GPDH/NADH-coupled; conditions = pH 8.9, 25 °C, ionic strength 0.1 NaCl, together with: glyceraldehyde 3-phosphate substrate; how to read = relative to: mutant over wild type; quantity = Ki ratio; result = 21
Compound = OC[C@H]1O[C@@H](n2ccc3c(SCc4ccc(Cl)c(Cl)c4)ncnc32)[C@H](O)[C@@H]1O; tested on = Toxoplasma gondii; assay = [3H]uracil incorporation; system = human fibroblasts, adenosine kinase deficient; conditions = 50 µM; quantity = survival; result = 100%
